Measured values from different studies.
Protocols differ between the studies behind these lines. Numbers after ± are the reported error.
CYP2C8: Cytochrome P450 2C8 (CYP2C8, Homo sapiens, UniProt P10632)
Chain of UniProt P10632 (whole entry, looked up): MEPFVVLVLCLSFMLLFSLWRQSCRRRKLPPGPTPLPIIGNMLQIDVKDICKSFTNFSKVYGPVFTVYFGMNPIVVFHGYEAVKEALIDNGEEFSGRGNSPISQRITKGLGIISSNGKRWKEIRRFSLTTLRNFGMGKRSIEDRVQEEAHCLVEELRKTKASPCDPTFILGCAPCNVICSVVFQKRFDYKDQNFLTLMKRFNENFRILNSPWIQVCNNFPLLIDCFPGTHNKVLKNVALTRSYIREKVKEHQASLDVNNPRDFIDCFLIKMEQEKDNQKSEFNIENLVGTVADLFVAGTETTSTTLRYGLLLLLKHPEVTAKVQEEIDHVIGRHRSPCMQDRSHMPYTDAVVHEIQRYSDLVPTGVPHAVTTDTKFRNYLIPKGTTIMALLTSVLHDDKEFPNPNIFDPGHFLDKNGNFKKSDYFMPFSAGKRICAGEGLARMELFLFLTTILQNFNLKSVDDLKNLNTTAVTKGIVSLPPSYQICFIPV
UCHL1: Ubiquitin carboxyl-terminal hydrolase isozyme L1 (UCHL1, Homo sapiens, UniProt P09936)
Chain of UniProt P09936 (whole entry, looked up): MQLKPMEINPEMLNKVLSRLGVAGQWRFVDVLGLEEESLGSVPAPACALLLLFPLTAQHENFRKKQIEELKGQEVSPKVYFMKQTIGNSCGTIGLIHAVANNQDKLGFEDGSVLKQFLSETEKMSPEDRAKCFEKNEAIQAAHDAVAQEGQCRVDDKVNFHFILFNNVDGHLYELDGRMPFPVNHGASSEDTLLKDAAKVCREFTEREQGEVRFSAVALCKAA

Compound	tested on	test	test system	conditions	how to read	measurement	value
COc1cc(O)c(CC=C(C)C)c2c1C(=O)CC(c1ccc(O)cc1)O2 (stereo not drawn)	CYP2C8	enzyme activity, inhibitor	human liver microsomes	10 µM, pH 7.4, added: amodiaquine	–	inhibition	98.9 ± 0.1%
C[C@@H](c1ccc2nccn2c1)n1nnc2ncc(-c3cnn(C)c3)nc21	CYP2C8	–	human liver microsomes	10 and 50 µM, 30 min preincubation, pH 7.4, added: ± NADPH	–	time-dependent inhibition	< 20%
CC(C)=CCc1c(O)cc2c(c1O)C(=O)C[C@@H](c1ccc(O)cc1)O2	CYP2C8	–	–	10 µM, pH 7.4	–	inhibition	85.5 ± 1.2%
C[C@]12CCC(O)CC1=CCC1C2CC[C@]2(C)/C(=N\NC(N)=S)CCC12 (stereo partly drawn)	Trypanosoma cruzi	reporter translation, Renilla luciferase mRNA translation	cell-free extract	40 µM	relative to: DMSO	inhibition	-7.8%
CN(C(=O)n1cnc(-c2ccc[n+]([O-])c2)c1)C1CCCCC1	CYP2C8	enzyme activity, inhibitor	pooled human liver microsomes	0.1 to 30 µg/mL	–	inhibition	no effect
O=C(CCl)N1N=C(c2cccs2)CC1c1ccccc1O (stereo not drawn)	UCHL1	covalent, intact protein LC-MS	–	12.5 µM	–	labelling	41.8%
CC(C)=CCc1c(O)cc(O)c2c1O[C@H](c1ccc(O)cc1)CC2=O	CYP2C8	–	–	1 µM, pH 7.4	–	inhibition	32.2 ± 1.2%
Cc1cc(Nc2ncnc3ccc(NC4=NC(C)(C)CO4)cc23)ccc1Oc1ccn2ncnc2c1	CYP2C8	substrate	human, plasma	oral, 300 mg single dose, day 1	–	mean half-life	522 min
Cc1ccccc1NC(=O)C(C#N)=Cc1ccc2c(c1)OCCO2	UCHL1	covalent, intact protein LC-MS	–	12.5 µM	–	labelling	10.4%
N#C[C@H](C[C@@H]1CCCNC1=O)NC(=O)[C@H](CC1CC1)NC(=O)c1cc2cccc(Cl)c2[nH]1	CYP2C8	NADPH metabolic stability	–	2 µM, pH 7.4	–	half-life	0.79 min
CCOc1cc(CC(=O)N[C@@H](CC(C)C)c2ccccc2N2CCCCC2)ccc1C(=O)O	CYP2C8	substrate	human, plasma	0.5 mg, day 1	–	geometric mean AUC(0-inf)	11.1 ng·h/mL
COc1cc(O)c(CC=C(C)C)c(O)c1C(=O)/C=C/c1ccc(O)cc1	CYP2C8	enzyme activity, inhibitor	human liver microsomes	1 µM, pH 7.4, added: amodiaquine	–	inhibition	47.8 ± 5.1%
C=CC(=O)Nc1cc(Nc2nccc(-c3cn(C)c4ccccc34)n2)c(OCC(F)(F)F)nc1N(C)CCNC	CYP2C8	substrate, recombinant enzyme	–	–	–	formation clearance	1.58 µL/min/pmol
Cc1ccc2c(c1)C(=O)[C@]1(O)CCN(c3ccc4nc(C)ccc4c3)C1=N2.Cl	CYP2C8	metabolic stability	recombinant CYP isoform	–	–	half-life	32.6 min
Cc1cc(Nc2ncnc3ccc(NC4=NC(C)(CO)CO4)cc23)ccc1Oc1ccn2ncnc2c1 (stereo not drawn)	CYP2C8	–	human, plasma	oral, 300 mg tucatinib single dose, day 1, arithmetic mean	–	AUC(0-inf)	476 ng·h/mL
